{"data": "Experimental data from different studies", "note": "Each numbered part is a random draw from the data of one study; scales do not carry over between parts."}
{"data": "Study 1", "target": "Centromere-binding protein 1, full length, His-tagged (CBF1, Saccharomyces cerevisiae, UniProt P17106, residues 1-351)", "method": "competition protein-binding microarray", "form": "double-stranded DNA, one strand shown", "medium": "in vitro", "concentration": "2 µM", "notes": "whole 60-bp probe, lowest competitor level", "with": "Pho4 competitor, 0.05 µM", "direction": "higher = stronger binding", "shared flanks, not repeated": "… GTCTTGATTCGCTTGACGCTGCTG", "chain of UniProt P17106 (whole entry, looked up)": "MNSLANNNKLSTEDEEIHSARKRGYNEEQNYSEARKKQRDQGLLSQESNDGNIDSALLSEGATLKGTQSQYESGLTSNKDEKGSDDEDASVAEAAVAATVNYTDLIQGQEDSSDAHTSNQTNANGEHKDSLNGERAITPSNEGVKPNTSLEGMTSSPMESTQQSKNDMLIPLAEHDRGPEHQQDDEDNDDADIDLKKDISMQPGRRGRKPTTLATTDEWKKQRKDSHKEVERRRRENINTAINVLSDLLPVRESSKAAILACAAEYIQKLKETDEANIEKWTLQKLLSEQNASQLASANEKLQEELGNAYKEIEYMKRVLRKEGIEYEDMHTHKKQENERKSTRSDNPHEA"}
{"Oligonucleotide": "TTTATATAAAGGGTACTCGTGCAAACGGACATCGAG", "fluorescence intensity": "133 a.u."}
{"Oligonucleotide": "CGACCCAAATAGTTAAACGTGTGGATTATGGGTGCA", "fluorescence intensity": "88.2 a.u."}
{"Oligonucleotide": "AAAGCGGTAATTTTTCACGTGGATTCACATATCTAT", "fluorescence intensity": "636 a.u."}
{"Oligonucleotide": "CACCCCAACAAAGGACATGTGGAAATTGATCGTCGA", "fluorescence intensity": "81.9 a.u."}
{"Oligonucleotide": "GTCTTGTCTCATTGCGCTGTGGGTGTCCCCACTTCA", "fluorescence intensity": "83.4 a.u."}
{"Oligonucleotide": "GTACAATAACATATGCACATGGCAACGGGTCTTGGT", "fluorescence intensity": "158 a.u."}
{"Oligonucleotide": "GTATAAAAAGAGTGGCATGTGAACTGCCTACCGTAA", "fluorescence intensity": "119 a.u."}
{"Oligonucleotide": "TCTTACAATGTTCCGCACGTTTATCAAAGTGTTACA", "fluorescence intensity": "124 a.u."}
{"Oligonucleotide": "ATAGACGTACTGTTACACGTGATGGCGAGGATAGCG", "fluorescence intensity": "2340 a.u."}
{"Oligonucleotide": "AAATGCCGCTTAGAGAACGTGGAAGAAGAGTTTGAT", "fluorescence intensity": "72.6 a.u."}
{"Oligonucleotide": "GTCAATGCCCTAGCAGACGTGCTTTACAAGACTGCC", "fluorescence intensity": "61.6 a.u."}
{"Oligonucleotide": "CTTCTGTAAATTTGTCACCGAACTTGACGCGCCCCG", "fluorescence intensity": "77.7 a.u."}
{"Oligonucleotide": "GGAAGGTGGCACCATCACCTGGGGAAATTCTGTCAA", "fluorescence intensity": "61.8 a.u."}
{"Oligonucleotide": "TCCCTGTTTATTTCACACGTCGCTTTGACTGCATAC", "fluorescence intensity": "77.3 a.u."}
{"Oligonucleotide": "CGGGGTTAAGTTTTTCACGTGCGCTGCTTGCAGCAG", "fluorescence intensity": "652 a.u."}
{"Oligonucleotide": "CTAACGAAGGTTTGTCACCTGACTTACAAGCCAAGT", "fluorescence intensity": "1420 a.u."}
{"Oligonucleotide": "TATCCGGACATTTTTCCCGTGATGGAATTGGCATCC", "fluorescence intensity": "146 a.u."}
{"Oligonucleotide": "CTTCTGTAAATTTGGTAAGTGGGTGGACGCGCCCCG", "fluorescence intensity": "85.6 a.u."}
{"data": "Study 2", "target": "Ras GTPase-activating protein-binding protein 1, RRM domain (G3BP1, Homo sapiens, UniProt Q13283)", "method": "RNA Bind-n-Seq", "form": "RNA", "medium": "in vitro", "concentration": "1 µM", "notes": "whole 134-nt RNA, ends assumed", "with": "150 mM KCl", "baseline": "input library", "direction": "higher = stronger binding", "shared flanks, not repeated": "GGGAGUUCUACAGUCCGACGAUC … UGGAAUUCUCGGGUGUCAAGG", "chain of UniProt Q13283 (whole entry, looked up)": "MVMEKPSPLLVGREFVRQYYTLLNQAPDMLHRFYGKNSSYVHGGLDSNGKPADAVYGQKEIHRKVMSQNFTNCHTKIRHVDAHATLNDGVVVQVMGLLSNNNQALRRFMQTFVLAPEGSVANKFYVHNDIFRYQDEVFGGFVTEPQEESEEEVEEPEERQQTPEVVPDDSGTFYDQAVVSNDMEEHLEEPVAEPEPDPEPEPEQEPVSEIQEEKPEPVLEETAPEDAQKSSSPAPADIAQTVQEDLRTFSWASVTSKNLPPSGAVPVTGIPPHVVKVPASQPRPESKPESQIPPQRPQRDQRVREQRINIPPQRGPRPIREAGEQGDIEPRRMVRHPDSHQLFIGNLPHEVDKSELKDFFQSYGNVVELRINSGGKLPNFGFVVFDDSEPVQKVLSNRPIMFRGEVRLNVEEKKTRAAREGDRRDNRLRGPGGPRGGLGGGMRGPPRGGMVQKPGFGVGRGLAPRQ"}
{"Oligonucleotide": "CUGUGCUACACAUCGUAUGUACCGAAUCGGGGAAAAAAAGGGGAAAAAAAGGGAAAAAAAGGAAAGUAUUAUGUUACGCCGUUCGGAUCU", "log2 enrichment": 0.178}
{"Oligonucleotide": "GCAGGAAGUAAAAACAAAUGGAAAUGCUUCGGAUAGUGGCAGGGGUGGGGGUUGGUAAGGAAAGGGUGGGAUGGGAGUGGGUAAAGAGUU", "log2 enrichment": 2.27}
{"Oligonucleotide": "CUCAAGUCCUGUGCUACACAUCGUAUGUACCGAAUCGGCCGGCCGGGGCCGGGAAAGUAUUAUGUUACGCCGUUCGGAUCUGCACUUCCA", "log2 enrichment": -0.371}
{"Oligonucleotide": "UGGCCCUGGUGGCAUGCGGGGAGGAAGAGGUGGCCUAAUGGAUCGUGGUGGUCCCGGUGGAAUGUUCAGAGGUGGCCGUGGUGGAGACAG", "log2 enrichment": 0.962}
{"Oligonucleotide": "UGGGAGGUGGAUUUUGUUUAUUUUUUUAGCUCAUUUCCAGGGGUGGGAAUUUUUUUUUAAUAUGUGUCAUGAAUAAAGUUGUUAUUGAAA", "log2 enrichment": 1.92}
{"Oligonucleotide": "UUUUUUGUAGUAGGGAGAUCCUUGAUCAUCAGGAUGGUAAUGUAGAAGAUGAUGGGCUUACAGGACUCCUAAGGCUUGCAACAAGUGUUG", "log2 enrichment": -0.0497}
{"Oligonucleotide": "UCCUGUGCUACACAUCGUAUGUACCGAAUCGGGGCCCCCCGGGCCCCCCGGGCCCCCCGGAAAGUAUUAUGUUACGCCGUUCGGAUCUGC", "log2 enrichment": -0.393}
{"Oligonucleotide": "CCUGUGCUACACAUCGUAUGUACCGAAUCGGGAAAAAGGGUUUUUUUGGGUUUUUUUGGGAAAGUAUUAUGUUACGCCGUUCGGAUCUGC", "log2 enrichment": -0.322}
{"Oligonucleotide": "GUCCUGUGCUACACAUCGUAUGUACCGAAUCGGGGUUUUUUUGGGGUUUGGGGUGGGGAAAGUAUUAUGUUACGCCGUUCGGAUCUGCAC", "log2 enrichment": 0.735}
{"data": "Study 3", "target": "Histone acetyltransferase KAT6A, both winged helices, GST fusion (KAT6A, Homo sapiens, UniProt Q92794, residues 1-181)", "method": "protein binding microarray", "form": "double-stranded DNA, one strand shown", "medium": "in vitro", "concentration": "not given", "notes": "8-mer, flanks averaged, mean of 2 arrays, mostly near background", "baseline": "not given", "direction": "higher = stronger binding", "Residues (chain)": "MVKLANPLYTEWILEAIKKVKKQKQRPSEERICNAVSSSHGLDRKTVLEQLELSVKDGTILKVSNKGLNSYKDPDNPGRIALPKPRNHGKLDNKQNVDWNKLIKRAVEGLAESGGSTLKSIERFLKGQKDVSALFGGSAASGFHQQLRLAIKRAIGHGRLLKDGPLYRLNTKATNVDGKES"}
{"Oligonucleotide": "CGAGCCAA", "E-score": -0.175}
{"Oligonucleotide": "AGAGATGC", "E-score": -0.0852}
{"Oligonucleotide": "ATTCCGAA", "E-score": 0.0601}
{"Oligonucleotide": "GATCCATA", "E-score": 0.0351}
{"Oligonucleotide": "GAAGCCGA", "E-score": 0.068}
{"Oligonucleotide": "CCTACGCG", "E-score": 0.281}
{"Oligonucleotide": "CAGCAATA", "E-score": -0.158}
{"Oligonucleotide": "GGATGTGA", "E-score": -0.0738}
{"Oligonucleotide": "ATGAAAGA", "E-score": -0.124}
{"Oligonucleotide": "CTATATGA", "E-score": -0.0859}
{"Oligonucleotide": "CCTGGTCG", "E-score": -0.0105}
{"Oligonucleotide": "CAACAGAC", "E-score": 0.0251}
{"Oligonucleotide": "GCGGTAAC", "E-score": 0.26}
{"Oligonucleotide": "CAATCTCG", "E-score": -0.0985}
{"Oligonucleotide": "CGAAAACA", "E-score": 0.0486}
{"Oligonucleotide": "AAGCCAAG", "E-score": -0.194}
{"Oligonucleotide": "GCTTCGTA", "E-score": -0.00105}
{"data": "Study 4", "target": "RNA binding protein fox-1 homolog 2, RRM domain, GST-SBP tag (RBFOX2, Homo sapiens, UniProt O43251-10, residues 100-194)", "method": "RNA Bind-n-Seq", "form": "RNA", "medium": "in vitro", "concentration": "365 nM", "notes": "natural RNA segment, single round, ends assumed", "baseline": "no-protein control", "direction": "higher = stronger binding", "shared flanks, not repeated": "GGGAGUUCUACAGUCCGACGAUC … UGGAAUUCUCGGGUGCCAA", "Target sequence (chain)": "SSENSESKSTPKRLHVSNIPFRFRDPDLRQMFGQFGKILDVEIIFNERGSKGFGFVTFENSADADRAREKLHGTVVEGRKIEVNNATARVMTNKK"}
{"Oligonucleotide": "GACCAGGCCAGCCUUGAACUAACACAUAGGUUGGACCUCUGAAUGGCCUUAUACUUGGAUAUUUGGCUUGUAUCAUUAUAAGGUUGUUUUUCUCCAAACAAAUUUCCUGU", "RBNS enrichment (R)": 0.324}
{"Oligonucleotide": "UCCUCUUUCCUCCAUUCAUCAUCAAGGUAGGCUGUGUUUGUCGGUGUGCCUCCCCUGCCCUCGGCCCCUAGCUGAUUUCUCCCCUAGAUAUGGUGCACUGUUUCCCUGGG", "RBNS enrichment (R)": 0.747}
{"Oligonucleotide": "CAGUGCACUUUGACAGUAGAUGCUGUCCUGCAGCUGUUACAGCUGAUAGUUGACCUCUGAGUCAGUGAGACCAACAAUGAGUGGUGGCCCCAGGCUUUGUUUCCUUUGCU", "RBNS enrichment (R)": 0.396}
{"Oligonucleotide": "GCCCUCUGGAGUCCCCUACCAUGACUGAAGGCGCCAGAGACUGGCGGUGUCUUAAGACUCCGGGCACCGCCACGCGCUGUCAAGCAACACUCUGCGGACCUGCCGGCGUA", "RBNS enrichment (R)": 0.394}
{"Oligonucleotide": "GCCUCUCCUGAAGUAUCACUCUACUAAAUGGUUAACAAACCAAUACUUUUAAAAUUGUACCCAAACCAGGAAAUUCACAGAUGUACUGCAAUCAAACCUAAGCUGUUGCC", "RBNS enrichment (R)": 0.622}
{"Oligonucleotide": "GGUCAUCUCUCCGUUCACACCCGAGGCUACACCUGAGGCUGAUUUCCUAAGGCUCCCUCCCAGGCAAGUGCCCACCAGCAAGUUCACCACAGAGCCUGAAGCCCACACUC", "RBNS enrichment (R)": 0.341}
{"Oligonucleotide": "CCAUAUUAGCAGUGAAACAUUUUAAACUGCAGAAAUUGUGGUUUUGGUUCAGAAACAAGUUGUAUAUUUUUCACCCCUGAUUAUGGGAAAAAAAUCAGUUCUGUCUUUGU", "RBNS enrichment (R)": 0.419}
{"Oligonucleotide": "UUAAUUUUUUCAGGUAUUUUUCUAUUUAGUGUUGCAGCCAAAGAGUAUUUAAAUUAAGUCUUUGCUGCACUUAAAUUCAUACCCAGCCAAAAUGGAACUUUAGGCCAACC", "RBNS enrichment (R)": 0.354}
{"note": "For quick reference, copied from above (study 3):"}
{"Oligonucleotide": "CTATATGA", "E-score": -0.0859}
{"Oligonucleotide": "GATCCATA", "E-score": 0.0351}
{"Oligonucleotide": "CGAAAACA", "E-score": 0.0486}
{"Oligonucleotide": "CCTGGTCG", "E-score": -0.0105}
{"Oligonucleotide": "AGAGATGC", "E-score": -0.0852}
{"Oligonucleotide": "CAGCAATA", "E-score": -0.158}
{"Oligonucleotide": "CAACAGAC", "E-score": 0.0251}
{"Oligonucleotide": "GCTTCGTA", "E-score": -0.00105}
